Assay results collected from several papers.
Numbered parts are unrelated; each lists some results of a single study.

Study 1 — technique: RNAcompete; form: RNA; medium: in vitro; concentration: 20 nM; notes: 7-mer, probes averaged, single round; relative to: mean of 7-mers; reading: higher = stronger binding
Target: PABPC1L2, full length, GST fusion (mouse, UniProt A0ABA7IW68)
Target sequence (chain): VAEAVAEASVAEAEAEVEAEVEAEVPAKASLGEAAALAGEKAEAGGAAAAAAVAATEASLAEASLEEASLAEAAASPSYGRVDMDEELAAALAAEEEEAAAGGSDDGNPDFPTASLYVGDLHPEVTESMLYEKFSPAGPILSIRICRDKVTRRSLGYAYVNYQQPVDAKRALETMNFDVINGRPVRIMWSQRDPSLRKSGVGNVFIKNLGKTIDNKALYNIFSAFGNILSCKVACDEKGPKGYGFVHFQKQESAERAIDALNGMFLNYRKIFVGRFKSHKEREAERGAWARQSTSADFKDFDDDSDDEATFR
For `UUUGUCU`, the 7-mer Z-score was -0.489.
For `UUUCUGU`, the 7-mer Z-score was -0.496.
For `AAGUGUC`, the 7-mer Z-score was 0.22.
For `CGUCCCC`, the 7-mer Z-score was -0.429.
`GACUAUG` gave a 7-mer Z-score of -0.104.
For `AUAUUUU`, the 7-mer Z-score was -0.144.
`ACCAGCU` gave a 7-mer Z-score of -0.275.
With `AUUCGGA` the 7-mer Z-score was -0.0554.

Study 2 — technique: RNA Bind-n-Seq; form: RNA; medium: in vitro; concentration: 20 nM; notes: 6-mer, flanks averaged, single round; with: 150 mM LiCl; relative to: input library; reading: higher = stronger binding
Target: TAR DNA-binding protein 43, full length, His tag (TARDBP, Homo sapiens, UniProt Q13148, residues 1-414)
For `UUUUUU`, “6-mer enrichment (R)” read 1.95.
`GCUUCU`: “6-mer enrichment (R)” 0.897.
`CCACGU`: “6-mer enrichment (R)” 0.92.
For `AGGGUC`, “6-mer enrichment (R)” read 0.954.
For `CCCCGU`, “6-mer enrichment (R)” read 1.13.
`GAUCCU` — result for “6-mer enrichment (R)”: 0.853.
`UCACCA` — result for “6-mer enrichment (R)”: 0.894.
Under “6-mer enrichment (R)”, `CGCGGC` is recorded as 0.977.

Study 3 — technique: RNA Bind-n-Seq; form: RNA; medium: in vitro; concentration: 200 nM; notes: whole 134-nt RNA, ends assumed; with: 150 mM LiCl; relative to: input library; reading: higher = stronger binding; each molecule: 7-deaza-guanosine replaces G
Target: Ras GTPase-activating protein-binding protein 1, full length (G3BP1, Homo sapiens, UniProt Q13283)
UniProt Q13283, sequence (whole entry, looked up): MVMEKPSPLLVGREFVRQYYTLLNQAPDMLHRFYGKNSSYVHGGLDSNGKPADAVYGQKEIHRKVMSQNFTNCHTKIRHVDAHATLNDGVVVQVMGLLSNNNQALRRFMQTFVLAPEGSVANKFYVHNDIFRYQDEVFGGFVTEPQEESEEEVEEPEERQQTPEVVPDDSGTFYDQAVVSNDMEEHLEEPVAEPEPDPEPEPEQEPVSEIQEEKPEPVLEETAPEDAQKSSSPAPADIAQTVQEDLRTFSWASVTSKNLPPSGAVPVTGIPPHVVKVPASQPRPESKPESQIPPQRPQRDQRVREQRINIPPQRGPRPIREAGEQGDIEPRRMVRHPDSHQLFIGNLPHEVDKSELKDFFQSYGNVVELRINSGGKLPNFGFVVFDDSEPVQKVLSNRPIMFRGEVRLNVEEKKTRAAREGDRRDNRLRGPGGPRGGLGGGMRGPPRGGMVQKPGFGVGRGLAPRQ
Shared flanks, not repeated: GGGAGUUCUACAGUCCGACGAUC … UGGAAUUCUCGGGUGUCAAGG
With `GUCCUGUGCUACACAUCGUAUGUACCGAAUCAAAUUUUUAAACCCCCCCAAAUUUAAAAAAGUAUUAUGUUACGCCGUUCGGAUCUGCAC` the log2 enrichment was 0.391.
`UGGCCCUGGUGGCAUGCGGGGAGGAAGAGGUGGCCUCAUGGAUCGUGGUGGUCCCGGUGGAAUGUUCAGAGGUGGCCGUGGUGGAUACAG` gave a log2 enrichment of -0.124.
`UCAAGUCCUGUGCUACACAUCGUAUGUACCGAAUCGGAAAGGGAAAGGGAAAGGGAAAGUAUUAUGUUACGCCGUUCGGAUCUGCACUUC` has a log2 enrichment of -0.206.
With `CCUCAAGUCCUGUGCUACACAUCGUAUGUACCGAAUCGGGGCCGGCCGGCCGGAAAGUAUUAUGUUACGCCGUUCGGAUCUGCACUUCCA` the log2 enrichment was 0.49.
With `AAGUCCUGUGCUACACAUCGUAUGUACCGAAUCGGGUUUGGGUUUGGGUUUUUGGGAAAGUAUUAUGUUACGCCGUUCGGAUCUGCACUU` the log2 enrichment was -0.576.
For `AGUCCUGUGCUACACAUCGUAUGUACCGAAUCGGGUUUUUUUGGGUUUGGGAAAGGGAAAGUAUUAUGUUACGCCGUUCGGAUCUGCACU`, the log2 enrichment was -0.962.
`UUAGUGAAUGUAUAGAAGGAGUAAAGGUAGAGCACAAUCCUGACCUGUCAGUUACUGUCAGCACCAAAAAAUCCCACCAGACAUGGACCU` has a log2 enrichment of 1.06.
`AGUCCUGUGCUACACAUCGUAUGUACCGAAUCAAACCCCCCCAAACCCAAACCCAAAAAAGUAUUAUGUUACGCCGUUCGGAUCUGCACU` has a log2 enrichment of 0.29.

Other studies, line by line
`TYSPALNKM` — result for binding: “inactive” (HLA class I histocompatibility antigen, A alpha chain, allele A*26:03 (Homo sapiens, UniProt P04439); peptide-MHC binding; peptide; concentration not given).

For quick reference, copied from above (study 2):
`GAUCCU` — result for “6-mer enrichment (R)”: 0.853.
`UCACCA` — result for “6-mer enrichment (R)”: 0.894.
